Experimental data collected from several papers.
Each line is one published result; not all experiments were run side by side. ± marks the error that the study gave.
CPL: CPL (Toxoplasma gondii, UniProt Q6DMN0)

CC(C)CCN(Cc1ccccn1)c1nc(C#N)nc(N2CCOCC2)n1
selectivity ratio (CPL; enzyme activity, inhibitor; baseline: human over Toxoplasma IC50): 0.4

CCN(Cc1ccccc1)C(=O)CCc1nc(CN2CCN(C(=O)Cc3ccc(OC)c(OC)c3)CC2)no1
activation V1/2 (Potassium voltage-gated channel subfamily KQT member 4 (KCNQ4, Homo sapiens, UniProt P56696); potassium current, whole-cell patch clamp; CHO, stable; 1 µM): -31.9 ± 0.9 mV

CC(C)OC(=O)c1ccc(OC(=O)C2CCN(C(=O)OC(C)(C)C)CC2)cc1
inhibitory concentration (ATP-dependent Clp protease proteolytic subunit (clpP, Staphylococcus aureus, UniProt Q2G036); enzyme activity, inhibitor): < 1 µM

CC(C)CCCN(Cc1ccc(F)cc1)c1nc(C#N)nc(N2CCOCC2)n1
selectivity ratio (CPL; enzyme activity, inhibitor; baseline: human over Toxoplasma IC50): 1.5

CC[C@H](C)[C@H](NC(=O)[C@H](Cc1c[nH]cn1)NC(=O)[C@H](CCCCNC(=O)[C@@H](NC(=O)[C@H](CCCCN)NC(=O)CSC[C@H](NC(=O)[C@H](Cc1ccccc1)NC(=O)[C@H](CCCCNC(=O)[C@H](CC(C)C)NC(=O)[C@@H]1CCCN1C(=O)[C@H](CCCCN)NC(=O)C[C@@H]1O[C@@H](C)[C@@H](O)[C@@H](O)[C@@H]1O)NC(=O)[C@H](CC(C)C)NC(=O)[C@@H]1CCCN1C(=O)[C@H](CCCCN)NC(=O)C[C@@H]1O[C@@H](C)[C@@H](O)[C@@H](O)[C@@H]1O)C(N)=O)[C@@H](C)CC)NC(=O)[C@@H](NC(=O)[C@H](CCCCN)NC(=O)CSC[C@H](NC(=O)[C@H](Cc1ccccc1)NC(=O)[C@H](CCCCNC(=O)[C@H](CC(C)C)NC(=O)[C@@H]1CCCN1C(=O)[C@H](CCCCN)NC(=O)C[C@@H]1O[C@@H](C)[C@@H](O)[C@@H](O)[C@@H]1O)NC(=O)[C@H](CC(C)C)NC(=O)[C@@H]1CCCN1C(=O)[C@H](CCCCN)NC(=O)C[C@@H]1O[C@@H](C)[C@@H](O)[C@@H](O)[C@@H]1O)C(N)=O)[C@@H](C)CC)C(N)=O
relative potency per fucoside (Fucose-binding lectin PA-IIL (lecB, Pseudomonas aeruginosa, UniProt Q9HYN5); binding, isothermal titration calorimetry; divided by fucoside copies; baseline: monovalent fucoside KD over ligand KD): 2.2

N=C(N)NCCCC[C@H](N)C(=O)Nc1ccc2c(CC(N)=O)cc(=O)oc2c1
Km (Aminopeptidase N (Neisseria meningitidis, UniProt Q9JYV4); enzyme activity, substrate; pH 7.5, 37 °C): 27.7 ± 2.3 µM

CC(C)C[C@H](NC(=O)[C@H](CCC(=O)O)NC(=O)[C@H](C)NC(=O)[C@H](CCC(=O)O)NC(=O)[C@H](CCC(=O)O)NC(=O)[C@H](Cc1c[nH]cn1)NC(=O)[C@H](CCCNC(=N)N)NC(=O)[C@H](CCC(=O)O)NC(=O)[C@H](CC(N)=O)NC(=O)[C@H](CCCCN)NC(=O)[C@H](CC(C)C)NC(=O)[C@H](CCCNC(=N)N)NC(=O)[C@H](CCC(N)=O)NC(=O)[C@H](CC(C)C)NC(=O)[C@H](CCC(=O)O)NC(=O)[C@H](C)NC(=O)[C@H](C)NC(=O)[C@H](C)NC(=O)[C@@H](NC(=O)[C@H](CC(C)C)NC(=O)[C@H](CCCCN)NC(=O)[C@H](CCC(=O)O)NC(=O)[C@@H](NC(=O)[C@H](CO)NC(=O)CN)C(C)C)[C@@H](C)O)C(=O)N[C@@H](CCC(=O)O)C(=O)N[C@@H](CCCNC(=N)N)C(=O)N[C@@H](CC(C)C)C(=O)N[C@@H](CCCCN)C(=O)N[C@@H](CO)C(=O)N[C@@H](CCC(=O)O)C(=O)N[C@@H](Cc1ccc(O)cc1)C(=O)O
koff (Plasminogen (PLG, Homo sapiens, UniProt P00747, C188G/E240D/L256Y); binding, SPR; pH 7.4): 0.0561 s⁻¹

CN1CCN(C(=O)N[C@@H](Cc2ccccc2)C(=O)N[C@H](/C=C/S(=O)(=O)c2ccccc2)CCc2ccccc2)CC1
kinact (Cathepsin K (CTSK, Homo sapiens, UniProt P43235); inactivator; pH 5.5, 25 °C, added: Z-LR-AMC): 0.022 ± 0.004 s⁻¹

C[C@H]1Oc2c(c(=O)oc3c2ccc2ccccc23)[C@@H]1C
remaining activity (Tyrosine-protein kinase SYK (SYK, Homo sapiens, UniProt P43405); enzyme activity, inhibitor, ADP-Glo; 5 µM): 67 ± 2.7%

CC[C@@H](C)[C@@H](NC(=O)[C@@H](CC(N)=O)NC(=O)[C@@H](CC(N)=O)NC(=O)[C@H](N)CCCNC(N)=O)C(=O)N1C[C@@H](n2cc([C]34[CH]5[CH]6[CH]7[CH]3[Fe]6754389%10[CH]4[CH]3[CH]8[CH]9[CH]4%10)nn2)C[C@H]1C(=O)N[C@@H](Cc1csc2ccccc12)C(=O)N[C@H](CO)C(N)=O (stereo partly shown)
binding free energy (Envelope glycoprotein gp160 (env, Human immunodeficiency virus type 1 group M subtype B, UniProt P35961); ITC; pH 7.4, 25 °C): -8.9 ± 2.9 kcal/mol

CS(C)(=O)=Nc1ccc(-c2ccc(-c3nc4cc(O[C@@H]5CO[C@H]6[C@@H]5OC[C@H]6O)[nH]c4cc3F)cc2)cc1
EC150 (PRKAB2/PRKAA1, with gamma1 subunit (Homo sapiens, UniProt O43741+Q13131); enzyme activity, activator; 60 min, 50% above basal activity, added: ATP 50 µM): 0.384 nM

Cc1ncsc1-c1ccc([C@H](C)NC(=O)[C@@H]2C[C@@H](O)CN2C(=O)[C@@H](NC(=O)CN2CCC(CN3CCN(CCC(=O)N4CCN(c5ncc(-c6cc(NC(=O)c7ccc(F)cc7C(F)(F)F)c(N7C[C@@H](C)N(C)[C@@H](C)C7)cc6F)cn5)CC4)CC3)CC2)C(C)(C)C)cc1
degradation (WD repeat protein WDS (Spodoptera frugiperda, UniProt A0A2H1VC02); degrader, targeted MS; Spodoptera frugiperda L5 larvae; injection, 0.1 nmol/mg): 22%

CN1CCCCC1Cn1c2ccccc2c2cc(C(=O)c3cccc4ccccc34)ccc21 (stereo not shown)
Emax (Cannabinoid receptor 1 (CNR1, Homo sapiens, UniProt P21554); cAMP inhibition, agonist, BRET; HEK293 expressing CNR1; added: forskolin; baseline: forskolin alone): 51.8%

C[C@@H](NC(=O)[C@H](Cc1ccccc1)NC(=O)[C@@H](CCCNC(=N)N)NC(=O)[C@H](CCCN)NC(=O)[C@@H]1CNC(=O)c2cc3cc(c2)C(=O)N[C@H](Cc2ccc4ccccc4c2)C(=O)N[C@@H](CO)C(=O)N[C@@H](CC(N)=O)C(=O)N[C@H](Cc2ccc4ccccc4c2)C(=O)N[C@@H](c2ccccc2)C(=O)N[C@@H](CCCCNC3=O)C(=O)N[C@H](Cc2ccccc2)C(=O)N[C@@H](CCC(N)=O)C(=O)N[C@H](CCCNC(=N)N)C(=O)N[C@@H](CCCNC(=N)N)C(=O)N1)C(=O)NCCOCCOCC(=O)NCCOCCOCC(=O)N[C@@H](CCCCNC(=O)c1ccc2c(c1)C(=O)OC21c2ccc(O)cc2Oc2cc(O)ccc21)C(N)=O
binding (purine nucleoside phosphorylase; fluorescence polarization; concentration not given): no binding

Cc1cc(O)cc(C)c1CC(N)C(=O)NC1CCNc2c(Cc3ccccc3)cc(Cc3ccccc3)cc21 (stereo not shown)
maximal stimulation (Delta-type opioid receptor (Oprd1, Rattus norvegicus, UniProt P33533); GTPγS binding, agonist; C6 cells expressing DOR; baseline: DPDPE at 10 µM): 42%

CCOC(=O)C(=Cc1cccc(C(N)=O)c1)C(=O)OCC
binding (Genome polyprotein, 3C protease (Human enterovirus D68, UniProt Q68T42, C1641Y/I1565V/I1594T/R1603K/Y1579H); isothermal titration calorimetry; enterovirus D68; concentration not given): no binding

Nc1nc2c([C@@H]3O[C@@H]4COP(=O)(O)O[C@H]5[C@@H](O)[C@H](c6snc7c(=O)[nH]c(N)nc67)O[C@@H]5COP(=O)(O)O[C@H]4[C@H]3O)snc2c(=O)[nH]1
time to complete cleavage (Cyclic di-GMP phosphodiesterase RocR (rocR, Pseudomonas aeruginosa, UniProt Q9HX69); substrate, HPLC; 10 µM, added: 100 nM enzyme): ≤ 20 min

C#C[C@@]12CC[C@H]([C@H](C)CCCC(C)C)[C@@]1(C)CC[C@H]1C2=CCC2C(C)(C)[C@@H](O)CC[C@@]21C (stereo partly shown)
maximal high-spin heme content (Sterol 14-alpha demethylase (CYP51, Trypanosoma cruzi, UniProt Q7Z1V1); spectral binding; type I spin shift): 35 to 40%

CC(=O)NCC(=O)N[C@@H](C)C(=O)N[C@@H](CCCCNP(=O)(O)O)C(=O)NCC(=O)NCC(N)=O
first-order rate constant (Phospholysine phosphohistidine inorganic pyrophosphate phosphatase (LHPP, Homo sapiens, UniProt Q9H008); substrate; 100 µM, pH 7.8): 0.000429 s⁻¹

COc1ccc(N2CCN(C(=O)ON3C(=O)C4CN(Cc5ccc(Oc6ccccc6)cc5)CCN4C3=O)CC2)cc1 (stereo not shown)
FP probe reactivity (Androgen-induced gene 1 protein (Homo sapiens, UniProt Q9NVV5); inhibitor, biochemical; concentration not given): no inhibition

CC(=O)NC(Cc1ccc(Br)c(Cl)c1)C(=O)N[C@@H](C)C(=O)N1CCC[C@H]1C(=O)N1CCC[C@H]1C(=O)N[C@@H](CCC(=O)O)C(=O)N[C@@H](Cc1c[nH]cn1)C(=O)N[C@@H](CO)C(=O)N[C@H](C(=O)N[C@@H](C)C(N)=O)[C@@H](C)OP(=O)(O)O (stereo partly shown)
inhibition (Tyrosine-protein kinase Lck (LCK, Homo sapiens, UniProt P06239); enzyme activity, inhibitor; 10 µM): 0.64%

N[C@@H](Cc1ccc(C(=O)NCCc2cccc3ccccc23)cc1)C(=O)N1Cc2ccccc2C[C@H]1C(=O)N[C@@H](Cc1ccccc1)C(=O)N[C@@H](Cc1ccccc1)C(=O)O
relative potency (Delta-type opioid receptor (OPRD1, Homo sapiens, UniProt P41143); G-protein activation, agonist; HEK293 stably expressing receptor; baseline: DPDPE): 7 to 14 fold

Some of these lines once more:
C#C[C@@]12CC[C@H]([C@H](C)CCCC(C)C)[C@@]1(C)CC[C@H]1C2=CCC2C(C)(C)[C@@H](O)CC[C@@]21C (stereo partly shown)
maximal high-spin heme content (Sterol 14-alpha demethylase (CYP51, Trypanosoma cruzi, UniProt Q7Z1V1); spectral binding; type I spin shift): 35 to 40%

Cc1ncsc1-c1ccc([C@H](C)NC(=O)[C@@H]2C[C@@H](O)CN2C(=O)[C@@H](NC(=O)CN2CCC(CN3CCN(CCC(=O)N4CCN(c5ncc(-c6cc(NC(=O)c7ccc(F)cc7C(F)(F)F)c(N7C[C@@H](C)N(C)[C@@H](C)C7)cc6F)cn5)CC4)CC3)CC2)C(C)(C)C)cc1
degradation (WD repeat protein WDS (Spodoptera frugiperda, UniProt A0A2H1VC02); degrader, targeted MS; Spodoptera frugiperda L5 larvae; injection, 0.1 nmol/mg): 22%

CN1CCN(C(=O)N[C@@H](Cc2ccccc2)C(=O)N[C@H](/C=C/S(=O)(=O)c2ccccc2)CCc2ccccc2)CC1
kinact (Cathepsin K (CTSK, Homo sapiens, UniProt P43235); inactivator; pH 5.5, 25 °C, added: Z-LR-AMC): 0.022 ± 0.004 s⁻¹
